Assay results from different studies.
Compare with care: the assays were run in different laboratories. ± gives the spread as reported.
PLK1: Serine/threonine-protein kinase PLK1 (PLK1, Homo sapiens, UniProt P53350)
Sequence of UniProt P53350 (whole entry, looked up): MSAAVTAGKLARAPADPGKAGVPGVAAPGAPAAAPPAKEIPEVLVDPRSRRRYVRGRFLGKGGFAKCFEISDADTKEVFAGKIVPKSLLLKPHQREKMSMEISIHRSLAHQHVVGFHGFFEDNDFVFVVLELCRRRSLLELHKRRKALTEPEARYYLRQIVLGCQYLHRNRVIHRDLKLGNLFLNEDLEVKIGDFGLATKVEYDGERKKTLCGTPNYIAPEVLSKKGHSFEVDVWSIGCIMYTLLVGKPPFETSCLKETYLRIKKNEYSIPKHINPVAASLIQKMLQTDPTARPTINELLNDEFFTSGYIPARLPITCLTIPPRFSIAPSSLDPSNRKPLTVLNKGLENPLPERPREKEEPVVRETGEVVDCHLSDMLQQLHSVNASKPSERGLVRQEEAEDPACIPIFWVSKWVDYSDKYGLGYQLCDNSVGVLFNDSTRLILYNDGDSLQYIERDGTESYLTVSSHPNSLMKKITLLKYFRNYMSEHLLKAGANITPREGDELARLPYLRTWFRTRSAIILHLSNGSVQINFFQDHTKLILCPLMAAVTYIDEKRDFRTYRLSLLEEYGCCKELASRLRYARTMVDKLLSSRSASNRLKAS
UCHL1: Ubiquitin carboxyl-terminal hydrolase isozyme L1 (UCHL1, Homo sapiens, UniProt P09936)
Sequence of UniProt P09936 (whole entry, looked up): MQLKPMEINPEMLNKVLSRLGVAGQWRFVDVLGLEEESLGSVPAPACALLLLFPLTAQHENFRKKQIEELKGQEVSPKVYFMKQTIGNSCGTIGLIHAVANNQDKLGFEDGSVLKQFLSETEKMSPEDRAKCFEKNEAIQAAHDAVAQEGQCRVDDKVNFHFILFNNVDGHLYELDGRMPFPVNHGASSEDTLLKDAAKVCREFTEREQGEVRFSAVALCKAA

Compound | target | assay | test system | setting | scale | endpoint | result
COc1cc(F)ccc1-c1ncnc(Nc2cccc(C[S@](C)(=N)=O)c2)n1 | PLK1 | kinase activity | – | 10 µM, added: 10 µM ATP | – | remaining activity | 105%
Cc1cc(Nc2cc(N3CCN(C)CC3)nc(Sc3ccc(NC(=O)C4CC4)cc3)n2)[nH]n1 | PLK1 | kinase activity, KinaseProfiler | – | 0.03 µM, species human | reference: control | remaining activity | 81%
Cc1ncsc1-c1ccc([C@H](C)NC(=O)[C@@H]2C[C@@H](O)CN2C(=O)[C@@H](NC(=O)CCCCCCCCC(=O)N(CCO)CCCOc2ccc3c(Nc4cc(CC(=O)Nc5cccc(F)c5)[nH]n4)ncnc3c2)C(C)(C)C)cc1 | PLK1 | degradation, Western blot | PC-3 and HPAF-II | 1 µM, 24 h | – | protein level | no effect
CC[C@@H]1[C@H](F)C(=O)N[C@@H]1COc1nccc2cc(C(N)=O)c(OC)cc12 | PLK1 | ATP-site probe binding, ActivX profiling | THP-1 cell lysate | 0.2 mM, Lys2 site | – | inhibition | -0.18%
CC(=O)N[C@@H](Cc1c[nH]c2ccccc12)C(=O)N[C@@H](CC(=O)O)C(=O)N1CCC[C@H]1C(=O)N1CCC[C@H]1C(=O)N[C@@H](CC(C)C)C(=O)N[C@@H](Cc1c[nH]cn1)C(=O)N[C@@H](CO)C(=O)N[C@H](C(=O)N[C@@H](C)C(N)=O)[C@@H](C)OP(=O)(O)O | PLK1 | polo-box domain binding, isothermal titration calorimetry | – | concentration not given, 25 °C | – | binding enthalpy | -18.6 ± 0.14 kcal/mol
O=C(NC1CCC1)c1ccc2nc(-c3cccc(NS(=O)(=O)NCCN4CCCCC4)c3)cn2c1 | PLK1 | enzyme activity | – | 10 µM | – | remaining activity | 96%
COc1ccccc1NC(=O)C(C#N)=Cc1ccccc1F | UCHL1 | covalent, intact protein LC-MS | – | 12.5 µM | – | labelling | 17%
CSCC[C@H](NC(C)=O)C(=O)N[C@@H](CC(=O)O)C(=O)N1CCC[C@H]1C(=O)N1CCC[C@H]1C(=O)N[C@@H](CC(C)C)C(=O)N[C@@H](Cc1c[nH]cn1)C(=O)N[C@@H](CO)C(=O)N[C@H](C(=O)N[C@@H](C)C(N)=O)[C@@H](C)OP(=O)(O)O | PLK1 | polo-box domain binding, isothermal titration calorimetry | – | concentration not given, 25 °C | – | binding stoichiometry | 0.98
CN(c1ccc(C(=O)CCl)cc1)S(C)(=O)=O | UCHL1 | covalent, intact protein LC-MS | – | 12.5 µM | – | labelling | 29.4%
O=C1NC(=O)/C(=C/c2ccc(-c3ccc(F)cc3O)o2)S1 | PLK1 | enzyme activity | – | 10 µM | – | remaining activity | 90%

Repeated from above:
Compound | target | assay | test system | setting | scale | endpoint | result
COc1ccccc1NC(=O)C(C#N)=Cc1ccccc1F | UCHL1 | covalent, intact protein LC-MS | – | 12.5 µM | – | labelling | 17%
